Results from different studies.
± marks the error that the study gave.
Target: Mitogen-activated protein kinase kinase kinase 11 (MAP3K11, Homo sapiens, UniProt Q16584)
Sequence of UniProt Q16584 (whole entry, looked up): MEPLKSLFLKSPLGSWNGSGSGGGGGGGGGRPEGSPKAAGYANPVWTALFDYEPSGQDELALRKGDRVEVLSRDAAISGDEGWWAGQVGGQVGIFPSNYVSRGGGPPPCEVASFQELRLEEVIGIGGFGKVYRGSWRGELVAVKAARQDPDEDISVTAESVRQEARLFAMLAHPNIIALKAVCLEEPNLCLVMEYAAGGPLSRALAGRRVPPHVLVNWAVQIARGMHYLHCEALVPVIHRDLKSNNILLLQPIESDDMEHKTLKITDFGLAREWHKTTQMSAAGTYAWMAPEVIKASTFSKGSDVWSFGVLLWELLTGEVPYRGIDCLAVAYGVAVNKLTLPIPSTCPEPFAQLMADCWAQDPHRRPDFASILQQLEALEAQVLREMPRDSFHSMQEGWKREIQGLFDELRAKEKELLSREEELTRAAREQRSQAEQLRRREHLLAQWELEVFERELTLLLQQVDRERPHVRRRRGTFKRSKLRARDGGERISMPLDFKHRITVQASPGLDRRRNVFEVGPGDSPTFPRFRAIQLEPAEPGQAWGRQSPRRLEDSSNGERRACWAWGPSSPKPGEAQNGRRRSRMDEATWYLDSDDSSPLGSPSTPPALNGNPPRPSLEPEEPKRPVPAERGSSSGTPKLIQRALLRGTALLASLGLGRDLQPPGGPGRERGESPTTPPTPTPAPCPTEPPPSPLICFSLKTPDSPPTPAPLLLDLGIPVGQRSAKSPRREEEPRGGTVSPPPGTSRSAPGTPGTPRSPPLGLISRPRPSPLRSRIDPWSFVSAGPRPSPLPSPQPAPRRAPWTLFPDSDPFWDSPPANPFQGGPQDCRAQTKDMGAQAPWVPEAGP

Structure (SMILES) | assay | system | conditions | how to read | quantity | result
C=CC(=O)N1CCC[C@@H](n2nc(-c3ccc(Oc4ccccc4)cc3)c3c(N)ncnc32)C1 | kinase activity, inhibitor, HotSpot radiometric | – | 100 nM, together with: ATP 10 µM | – | remaining activity | 89.1 ± 0.6%
C=CC(=O)N1CCC(COCC(=O)N2CCN(c3nc(-c4cnc(N)nc4C(F)F)nc(N4CCOC[C@@H]4C)n3)CC2)CC1 | KINOMEscan | – | 1 µM | relative to: DMSO control | remaining binding | 90%
COc1cc(N2CCN(C)CC2)ccc1Nc1nc(N)n(C(=S)NCc2c(Cl)cccc2Cl)n1 | enzyme activity | – | 10 µM | relative to: control | remaining activity | 6.3%
O=C(NC1CCC1)c1ccc2nc(-c3cccc(NS(=O)(=O)NCCN4CCCCC4)c3)cn2c1 | enzyme activity | – | 10 µM | – | remaining activity | 100%
C[C@@H](c1ccc(-n2cnc3c(N)ncnc32)cc1)N1CCc2nn(C)c(Cc3ccccc3)c2C1=O | KINOMEscan | – | 0.1 µM | relative to: DMSO control | remaining binding | 100%
C1=C/COCc2cc(ccc2OCCN2CCCC2)Nc2nccc(n2)-c2cccc(c2)COC/1 | – | – | concentration not given, gene name MLK3 | – | percent of control | 100%
CC[C@@H]1[C@H](F)C(=O)N[C@@H]1COc1nccc2cc(C(N)=O)c(OC)cc12 | ATP-site probe binding, ActivX profiling, item: MLK3 | THP-1 cell lysate | 0.04 mM, Lys1 site | – | inhibition | -0.9%
CC#CC(=O)N1CCC[C@H]1c1nc(-c2ccc(C(=O)Nc3ccccn3)cc2)c2c(N)nccn12 | kinase activity, inhibitor, HotSpot radiometric | – | 100 nM, together with: ATP 10 µM | – | remaining activity | 100 ± 2.7%
C=CC(=O)N1CCC(C(=O)NCC(=O)N2CCN(c3nc(-c4cnc(N)nc4C(F)F)nc(N4CCOCC4)n3)CC2)CC1 | KINOMEscan | – | 1 µM | – | remaining binding | 79%
COc1ccc(F)cc1C(=O)NCc1ccc(-c2nn([C@@H](C)C(F)(F)F)c(N)c2C(N)=O)cc1 | kinase activity, inhibitor, HotSpot radiometric | – | 1000 nM, together with: ATP at Km | – | remaining activity | 91.4 ± 1.6%
O=C1NC(=O)/C(=C/c2ccc(-c3ccc(F)cc3O)o2)S1 | enzyme activity | – | 10 µM | – | remaining activity | 32%

For quick reference, copied from above:
Structure (SMILES) | assay | system | conditions | how to read | quantity | result
CC[C@@H]1[C@H](F)C(=O)N[C@@H]1COc1nccc2cc(C(N)=O)c(OC)cc12 | ATP-site probe binding, ActivX profiling, item: MLK3 | THP-1 cell lysate | 0.04 mM, Lys1 site | – | inhibition | -0.9%
